Measurements pooled from the literature.
Each numbered part is a random draw from the data of one study; scales do not carry over between parts. Changes are numbered by the printed parent chain.

Sample 1
Target: Hepatocyte nuclear factor 3-alpha (Foxa1, Mus musculus, UniProt P35582, residues 1-468, full length assumed)
Technique: EMSA with sequencing
Molecule type: double-stranded DNA, one strand shown
Sample: in vitro
Tested at: 10 and 20 nM
Setting: whole designed probe, mean of two concentrations, ends assumed
Baseline: negative control set to 0
Direction: higher = stronger binding
Endpoint: normalised bound fraction
All sequences stand within: GTGAGCGGTGCCCATTGATGGGGAAC … TTTCACTGGGATCGTGGGGAC
Construct (chain): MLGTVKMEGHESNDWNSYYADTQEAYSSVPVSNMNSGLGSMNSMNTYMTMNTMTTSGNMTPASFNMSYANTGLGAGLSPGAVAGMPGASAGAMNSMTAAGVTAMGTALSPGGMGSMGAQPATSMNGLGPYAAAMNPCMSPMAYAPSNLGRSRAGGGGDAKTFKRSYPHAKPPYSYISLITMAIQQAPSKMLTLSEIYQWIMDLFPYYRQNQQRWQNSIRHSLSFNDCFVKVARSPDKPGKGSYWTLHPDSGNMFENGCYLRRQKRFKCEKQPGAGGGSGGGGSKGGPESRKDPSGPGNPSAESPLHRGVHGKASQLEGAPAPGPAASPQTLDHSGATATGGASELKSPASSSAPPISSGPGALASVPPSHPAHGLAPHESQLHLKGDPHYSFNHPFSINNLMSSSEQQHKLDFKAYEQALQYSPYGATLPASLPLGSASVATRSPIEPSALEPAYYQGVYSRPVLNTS
TGTTTTTAAATGGAGTTTAAAATAAACTGTTAAGAGCTCTGTTAAACTCCGGGCTTAGAGTATATTCTATTTTGGGATATTATTACTCAGTATGTAATCTAGCTGTACCAAGATAAACTGTACAAGATTTCATAATTCCTTGCTGCTCAAGAATAGCAGCTGGTTGCTGCAAAAATTTCAGTTTCCCCCCTAT: -0.0276 ratio
TGAGCGATGGGTCGAGTTGGCTTACTAAATTGTGGTAGAAATGAGTGTTATAGCTGAATTCACTTGGTAATTAGCACTTGCATTTACAGATTATGTAAACAAGCAATAGATTCAGGTTTGCACAGACTTAGTGATAGAATCCGGTTGCTAGACTCTTAGCCCAACAGGCTTTCCATCACACAATGAGAACAAG: 0.415 ratio
CTGCAGCACTACAGCCCCTTTCTAGGACATCCCTGAAGGATGCAGTGAAGGGAAATCTTCCCAGTGGGCAGAACTTCCAGCAGTGGTCCTGGTTGTGTACTTTGCATGGAAGGAGAAATAATCAAATGTGTGATTACATACTGATTCATGGGCTGCAGCCAATGGTTTGGCTGGATGGTCAGGGAGGTCATTC: 0.11 ratio
AATTTAGCCTAAGTCTGCCTCCTTACATATTAATATTTTAAGTTTGGCCTAAAGGTTTCCCCTTACAAAGTAAACTGCAGCCTAACTAGCTGTGTAAACACACTATTCTTAACACCAATCACAGATTTTCAGCAAGTCACAGGAAGTCAGCTGTTAACAAACTTTAAATAAAGCAAACACCAAGCTGTAAGCA: 0.441 ratio
CATTTGCCTCCGTCCCCACCCCCAGCCTGCTGCCTCTCAGGTTCACACTTCCTGGGCTCAGAGTTTCATCCTGAGGCAGATGGCTCAGCCAGAGCAATCTGAGACAGCACTAAAGTCATCTAAACCAGAGAGCAAGCAGCGCAGGTGACGTGGAAAAGAAAACTTGGAAGCCACAACAAAGGCATGTGGGCTG: -0.0616 ratio

Sample 2
Target: ABI1, truncated, D143A, DHFR fusion (Arabidopsis thaliana)
Technique: DHFR PCA, deep sequencing
Sample: yeast
Setting: methotrexate growth selection, single substitutions
Together with: (+)-ABA 58 µM
Baseline: wild-type fitted maximum
Direction: higher = stronger binding
Endpoint: relative binding score
Starting sequence: PYL1, truncated, DHFR fusion (Arabidopsis thaliana); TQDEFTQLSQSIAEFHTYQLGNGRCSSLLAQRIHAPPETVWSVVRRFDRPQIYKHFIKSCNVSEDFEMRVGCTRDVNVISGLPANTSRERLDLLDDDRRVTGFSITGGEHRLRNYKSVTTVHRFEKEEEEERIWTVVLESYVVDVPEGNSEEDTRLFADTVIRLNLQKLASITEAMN; partner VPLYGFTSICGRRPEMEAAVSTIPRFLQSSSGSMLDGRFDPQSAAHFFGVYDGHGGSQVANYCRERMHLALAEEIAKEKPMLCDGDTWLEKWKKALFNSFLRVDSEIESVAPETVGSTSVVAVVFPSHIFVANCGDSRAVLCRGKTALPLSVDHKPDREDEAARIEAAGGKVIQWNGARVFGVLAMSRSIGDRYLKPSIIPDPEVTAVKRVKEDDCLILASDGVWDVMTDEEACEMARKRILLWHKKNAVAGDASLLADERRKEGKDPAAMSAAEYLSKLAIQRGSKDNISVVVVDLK
E67L: 74.8%
T160M: 78.8%
A13K: 83.6%
S150L: 50%
V143S: 37.7%
D75N: 89.5%
R46Y: 11.1%
E151D: 81.1%
D144R: 32.9%
G108F: -18.3%
F5M: 95.7%
T101Q: 34.5%
R88A: 70.6%
E151Y: 75.2%

Sample 3
Target: CCND2, cyclin fold, Cln2 fusion (human)
Technique: yeast growth competition, sequencing
Sample: yeast
Setting: weak parent motif
Baseline: not given
Direction: higher = stronger binding
Endpoint: normalised enrichment score
Starting sequence: BRCA2 docking peptide (human); PSIKRNLLNEFDR
PSILRNLLNEFDR [K4L]: -0.113
PSHKRNLLNEFDR [I3H]: 0.287
PSIKRNLMNEFDR [L8M]: 0.655
PSIKRWLLNEFDR [N6W]: 0.171
TSIKRNLLNEFDR [P1T]: 0.14
PSIKRNLLNEFDI [R13I]: 1.11
PSIKRNLLNEFDW [R13W]: 0.834
PSIKRNLLNEFDE [R13E]: 0.289
PSIKRNILNEFDR [L7I]: 0.842
PEIKRNLLNEFDR [S2E]: -0.0845
PWIKRNLLNEFDR [S2W]: 0.152
PSIKRNLLNEFDS [R13S]: -0.0878
FSIKRNLLNEFDR [P1F]: -0.0109
PSIDRNLLNEFDR [K4D]: 0.22

Sample 4
Target: Phosphate system positive regulatory protein PHO4, full length, GST-tagged (PHO4, Saccharomyces cerevisiae, UniProt P07270, residues 1-312)
Technique: competition protein-binding microarray
Molecule type: double-stranded DNA, one strand shown
Sample: in vitro
Tested at: 2 µM
Setting: whole 60-bp probe, lowest competitor level
Together with: Cbf1 competitor, 0.05 µM
Direction: higher = stronger binding
Endpoint: fluorescence intensity
All sequences stand within: … GTCTTGATTCGCTTGACGCTGCTG
Residues (chain): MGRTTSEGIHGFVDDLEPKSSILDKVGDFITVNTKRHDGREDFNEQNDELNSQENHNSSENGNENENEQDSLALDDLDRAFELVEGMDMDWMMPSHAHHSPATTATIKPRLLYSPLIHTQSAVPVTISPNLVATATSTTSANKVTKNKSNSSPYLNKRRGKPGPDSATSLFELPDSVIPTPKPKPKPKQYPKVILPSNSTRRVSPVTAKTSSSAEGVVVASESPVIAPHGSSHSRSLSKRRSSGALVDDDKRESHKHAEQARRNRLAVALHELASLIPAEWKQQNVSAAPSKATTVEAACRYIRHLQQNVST
GGCCTCAAGGCATTACACGTTACGATTTTCCAACTG: 5640 a.u.
ATATTTTGGTAGCGCCGCGTGGGTAACAATGCAGTA: 10500 a.u.
CTAACGAAGGTTTTTCACGTGAAATACAAGCCAAGT: 8580 a.u.
GGCAATTGCAAGCCCGTCGTGCTTTTGGGGTGATAT: 7050 a.u.
AAGGACATACACAACCACAGACAAGGTCATATCGCG: 4900 a.u.
TGCAACAACAATGCCACTTAAAACTGGCTTAACTGT: 3640 a.u.
TCACCGGGTGCCGGCCACGCAATATATAAAACGGTA: 6310 a.u.
TGCGCAACAACTTGGCCGGTGGGTGTATGTCTAGAA: 4610 a.u.
CGGGGTTAAGTTTGTCACTCGACTTGCTTGCAGCAG: 3030 a.u.
ATCAAGGCTGTTCACCACGCATCTGTTCAAATCAAC: 8600 a.u.
GTAAGTGAGATAATCCACGTGCTTTAAAGAAGTTGT: 19200 a.u.
GGCAGGCGAAAATCCTATGTGCGTAGAGCTGATACA: 3880 a.u.
CGTCCTAGCGATTGATAAGTGGGTGCCATGAGGAAG: 6720 a.u.
CTTTCCCGATCTTGAAAGGTGGGTGTAGCACATTTG: 4260 a.u.
GTCTTGTCTCATTTTCACGTGCAATTCCCCACTTCA: 13400 a.u.
TTGCATATTGTTACCCACGGCTTCTAGCAACATGGA: 5960 a.u.
TGCGCAACAACTTTTCACGTGTCATTATGTCTAGAA: 14000 a.u.
CGTAACCAGACGAGTCACGTGTAATTTTGTAACTCA: 13300 a.u.
CCGATGTATTTCTGCCTCGTGCAAAATCTTGCGCCA: 11500 a.u.

Excerpt of the above (sample 1):
AATTTAGCCTAAGTCTGCCTCCTTACATATTAATATTTTAAGTTTGGCCTAAAGGTTTCCCCTTACAAAGTAAACTGCAGCCTAACTAGCTGTGTAAACACACTATTCTTAACACCAATCACAGATTTTCAGCAAGTCACAGGAAGTCAGCTGTTAACAAACTTTAAATAAAGCAAACACCAAGCTGTAAGCA: 0.441 ratio
CATTTGCCTCCGTCCCCACCCCCAGCCTGCTGCCTCTCAGGTTCACACTTCCTGGGCTCAGAGTTTCATCCTGAGGCAGATGGCTCAGCCAGAGCAATCTGAGACAGCACTAAAGTCATCTAAACCAGAGAGCAAGCAGCGCAGGTGACGTGGAAAAGAAAACTTGGAAGCCACAACAAAGGCATGTGGGCTG: -0.0616 ratio
TGAGCGATGGGTCGAGTTGGCTTACTAAATTGTGGTAGAAATGAGTGTTATAGCTGAATTCACTTGGTAATTAGCACTTGCATTTACAGATTATGTAAACAAGCAATAGATTCAGGTTTGCACAGACTTAGTGATAGAATCCGGTTGCTAGACTCTTAGCCCAACAGGCTTTCCATCACACAATGAGAACAAG: 0.415 ratio
TGTTTTTAAATGGAGTTTAAAATAAACTGTTAAGAGCTCTGTTAAACTCCGGGCTTAGAGTATATTCTATTTTGGGATATTATTACTCAGTATGTAATCTAGCTGTACCAAGATAAACTGTACAAGATTTCATAATTCCTTGCTGCTCAAGAATAGCAGCTGGTTGCTGCAAAAATTTCAGTTTCCCCCCTAT: -0.0276 ratio
CTGCAGCACTACAGCCCCTTTCTAGGACATCCCTGAAGGATGCAGTGAAGGGAAATCTTCCCAGTGGGCAGAACTTCCAGCAGTGGTCCTGGTTGTGTACTTTGCATGGAAGGAGAAATAATCAAATGTGTGATTACATACTGATTCATGGGCTGCAGCCAATGGTTTGGCTGGATGGTCAGGGAGGTCATTC: 0.11 ratio
